Results collected from several papers.
Each numbered part is a random draw from the data of one study; scales do not carry over between parts.

Series 1
Target: Hepatocyte nuclear factor 3-alpha (Foxa1, Mus musculus, UniProt P35582, residues 1-468, full length assumed)
Method: EMSA with sequencing
Form: double-stranded DNA, one strand shown
Sample: in vitro
Concentration: 10 and 20 nM
Notes: whole designed probe, mean of two concentrations, ends assumed
Baseline: negative control set to 0
Direction: higher = stronger binding
All sequences stand within: GTGAGCGGTGCCCATTGATGGGGAAC … TTTCACTGGGATCGTGGGGAC
Construct (chain): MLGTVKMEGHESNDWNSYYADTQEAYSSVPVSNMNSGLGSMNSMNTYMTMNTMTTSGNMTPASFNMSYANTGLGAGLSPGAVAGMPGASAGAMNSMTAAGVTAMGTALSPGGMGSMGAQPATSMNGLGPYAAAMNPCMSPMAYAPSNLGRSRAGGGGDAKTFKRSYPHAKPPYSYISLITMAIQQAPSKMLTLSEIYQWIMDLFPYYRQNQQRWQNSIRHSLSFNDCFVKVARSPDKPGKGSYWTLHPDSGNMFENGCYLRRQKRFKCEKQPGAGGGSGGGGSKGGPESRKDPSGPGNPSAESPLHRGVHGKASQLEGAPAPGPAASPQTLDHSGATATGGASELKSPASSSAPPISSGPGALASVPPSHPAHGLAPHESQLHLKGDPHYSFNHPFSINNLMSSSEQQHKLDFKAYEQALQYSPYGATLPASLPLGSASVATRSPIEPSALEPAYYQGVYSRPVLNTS
`ATTTTATTTGCTACAACAAGCAAGAAGGCTGAGGTTTATTGAGCAATAGCTGGGTTTTGTCAAACTTGCTTAAGGATTGCCTAAGACCAGCAAAATAATCTTGATAAAGTTGAAGAATGACCAGTTTTCCACTCTGCTGTGTTTGGAGGCTGACGAAACTGTCATTGACAAAATTGCCCTGATGGGACTGTTT` — result for “normalised bound fraction”: -0.0419 ratio.
For `GAAAAGTGCAAAGCGTTGGCATCTGGGTCCTTCGTGAAGCTGTGTGATTCTGGACTTTGGACTGTAGTCCACTGTAGCCTGCCTTCTCACTGTGTAATTTCATAACTACATGGGCTCCCGTGAGCTTGCCACACGCCACAGGCTATGCCTAATTCTACAAAGCCTGAAGGAAAAATACTGTGAAAAATACTTA`, “normalised bound fraction” read 0.0158 ratio.
Under “normalised bound fraction”, `CCCTCATCCTGGGTGTCGGGGTGGGAGGTGTTCTCATCATGAATGGGAGGCGTACCCAGATCCAGCTCTGCCTTTTTTTAACCAAACCACATTTGTTTACACTCGCTGTTAAGTGACTCACCATCGACATAGCAAGATATGATACATGCCAGGAGAGAAAAAGAAAGTGCTGATGGAAAAATAATCTCATTAG` is recorded as 0.307 ratio.
`TATGAATTACAAACATTAAAATTGGCTACAACTCCTCTTCAACCAATTACTAACAAGAAGCACCTAAAAGGTCAAAATCATGAAACACCAAAGTAAACAGACATGTGTGCACCTTTTGCTAAATACCAGTCACATAATCCAACATGTATTCATTATATTTTTGACACTAGGAAATAGTTTAAACCTTGGTTTA`: “normalised bound fraction” 0.412 ratio.
`GGAGCAATGCCGGCTGGTGGCCTGGCCGCTCCGCCCCTTCCCTACCCCTCGCGGAGGGCCCGCCCCCTGCCCCGCGCCGGCTAGCGGAGGAGAGTAATTTCAACAGGAGCGCAAAATGGCGGAACCGCCGAGCCCCGTGCACTGTGTCGCTGCCGCGGCCCCCACCGCCACCGTCTCGGAGAAAGAACCGTTT`: “normalised bound fraction” -0.0227 ratio.
`GCTCAAAAAGCTCGGCTCAAAACTTCATTGTTTTAGGTATTTTGGGGGGAAACGAAGAGTTATCTCAGGAAGGGGGAAATATGTATAGAAAAGTAAACATGAAAACATAAGAATATTTATTCAGTAGTTCATCAAATATATATCAAAACTCTACAATGCCCCCAGATACATATTCTGTACAAGAAGAAATACG`: “normalised bound fraction” 0.472 ratio.
`CAGGCAGTTGGAAAGTTCCTATATGATGTGGGGCTGGGACTGGAGAAAGTGACATGTCATCATTAGGTTAGCTTTTTTGACATTTGTGTTTGCTTGTTTACTTTTTAATGTTGTTAACACATTTTTTATTGATCTGATAAAAACAGCAATTATCTTTAAAAGGAATGATTAGTTTCTTTTGTCTTTTGATTTG`: “normalised bound fraction” 0.431 ratio.
Under “normalised bound fraction”, `TTTCCAGCCCTTAGTTTCTGGCATTTAACCTGACTCTGGTCCCTGAATGGCATGGGAGCTGACTCATTCACAGGTTTCCACATTCATGCCACTTGTTTGCTTTTCTGTCACATTCTGATCTACAGAGATCTTTATTTGCTTTGTGTTTCCAATGGAGAAAGAGCTTGGGAAGGGAGGATCCTAATTGTCTAAA` is recorded as 0.515 ratio.

Series 2
Target: RING finger protein unkempt homolog, zinc fingers 1-6, SBP tag (UNK, Homo sapiens, UniProt Q9C0B0, residues 30-357)
Chain of UniProt Q9C0B0 (30-357, looked up): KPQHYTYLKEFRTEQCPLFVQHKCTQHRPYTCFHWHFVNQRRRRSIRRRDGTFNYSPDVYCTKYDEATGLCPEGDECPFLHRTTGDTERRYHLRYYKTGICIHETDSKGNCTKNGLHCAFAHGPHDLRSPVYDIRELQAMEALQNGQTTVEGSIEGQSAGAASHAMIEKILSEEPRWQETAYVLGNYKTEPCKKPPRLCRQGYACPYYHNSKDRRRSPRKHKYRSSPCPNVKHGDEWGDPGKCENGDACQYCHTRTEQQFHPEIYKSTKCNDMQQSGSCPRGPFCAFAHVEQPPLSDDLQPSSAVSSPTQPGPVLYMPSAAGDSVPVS
Method: RNA Bind-n-Seq
Form: RNA
Sample: in vitro
Concentration: 100 nM
Notes: RNA with constant flanks, vertebrate orthologous sites, ends assumed
Baseline: input RNA pool
Direction: higher = stronger binding
All sequences stand within: GGGAGUUCUACAGUCCGACGAUC … CAACAGAGGAUUGAGCAUCA
With `GUUUAGAUAAUUCUUUUUAUUUUUUUUCCUUUUCCCUUAAUCCUUUUUUAUUUUUAAAAAUAGUUCUUUUGUAAUGUGGUGUUCAAAAUGAAAAUUGAAUACUGGCUCUCCAUCUCUUUA` the bound/input enrichment was 7 ratio.
With `UUCAGGCACAACUGACUGGUUCACAGCAUUCCUUACAUAGCUAUCUGUCAAAUGCAAGUGUGGUUAAUUUUCAGGAAACAAGUAGGCAGUCAUCUUUAUCCUGUAGCCCAGUUGGAGAUU` the bound/input enrichment was 0.993 ratio.
`AGUCGAUGCAAUUACAUAAUACUGAGCUUACAGUUGAAAGGAUAUCCCAGUAUGUGUUGGUAGUUACUGAAGGAAUUAGAACUGGUGUUGCCUUGUAUUUUAGCCCUUGUUUCAGGUUUU` gave a bound/input enrichment of 0.368 ratio.
The bound/input enrichment of `GUACUGCCCAUGCAAAUCCCACAACACUGAAUGCAAAGUAGCAAUUUCCAUAGUCACAGUUAGGUAGCUUUAGGGCAAUAUUGCCAUGGUUUUACUCAUGUGCAGGUUUUGAAAAUGUAC` is reported as 1.63 ratio.
The bound/input enrichment of `CCUCUCACCCCCCCAUCCUCUGACAUGAGUGGAUUCUUUUUUCUUUUUUUACAUUUUGUAUAGAAACAAAUUCAUUUAAACAAACUUAUUAUUAUUAUUAUUUUUUACAAAAUAUAUAUA` is reported as 1.55 ratio.
For `UAUCUUCAGGAUGAAGCUCUUACAUCAGGUGUCAAGAGUCUGGAGAACAGAUGGGUUGAACAGUUGUAUUUAUAAGUUAGUCUCUGUGGAUUACAAUCCUUUAUAUAUCAACAUCACAGU`, the bound/input enrichment was 0.322 ratio.
The bound/input enrichment of `CUGUUGCAUGAAAUAUGUCUACCCAGAGAAGUAUCACACUAUAAAUAUUAUCAAAUAAUUUAGCUACAGUCUUCUUAGAUAUUAAAUUGUAUGUCAAGCAUUUAAAAGUCAAUUUGAGAU` is reported as 0.615 ratio.
With `CAUGUCCUUGUUGCUGUGAUAUUUAAAAUAUCCACAGUACUCACUUUUUCCAAAUGAUUCUAGAAACUGCCUAGAAAUAUUUUUCUCUUACCUGUUAUUUAUCAAUUUUUCCCAGUAUUU` the bound/input enrichment was 1.29 ratio.
With `UCAUUGUAAUGCACAAAUCAUCUUACUUCUCAAUUAUCUAUGGUGGUAACUAGUCUGCACUAGUAAAAUCAUUUACUCUUAUCUUUUGAAAUACCUGCUUUGUCUGAUACCUGAAACACG` the bound/input enrichment was 1.15 ratio.
With `AAAUUUAUUUCAUGCCCUGGACUCCCUAUCGUACUGAUACUUUAAUAGAAUAUGCUUCUUUAGAAGAUUUCCAAAACAGUCGCCAAACAACAACAUAUAAACUUCCAAAUCGAGUAGAUG` the bound/input enrichment was 1.09 ratio.
`UGUGUGUUGGUGCAGAGUGCUCUGUACCAGUGCUCAUCAUCCCUUCAUACCAACUGUCUCUAGCUAUAGGAAUUUGAUAUUUUUAAAAGUUUUACAUUGCUGUAUAUUCAAAGAUUUGUU` gave a bound/input enrichment of 0.542 ratio.

Series 3
Target: RNA binding protein fox-1 homolog 2, RRM domain, GST-SBP tag (RBFOX2, Homo sapiens, UniProt O43251-10, residues 100-194)
Method: RNA Bind-n-Seq
Form: RNA
Sample: in vitro
Concentration: 365 nM
Notes: natural RNA segment, single round, ends assumed
Baseline: no-protein control
Direction: higher = stronger binding
All sequences stand within: GGGAGUUCUACAGUCCGACGAUC … UGGAAUUCUCGGGUGCCAA
Construct (chain): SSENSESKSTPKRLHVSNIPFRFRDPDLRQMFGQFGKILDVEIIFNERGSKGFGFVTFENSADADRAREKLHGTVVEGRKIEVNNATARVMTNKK
Under “RBNS enrichment (R)”, `GAUUAAGGAAGGGUCAAGCCAGCCACUGCUGUGGCCCUGCCCAGGGCUUGGUUGAGGGAACGGCUUCUGGCUGUAUGGCUGCAUGUGACAAGCCACGUCCCCUCCCACCU` is recorded as 15.8.
`UGUGAACUUUUUCUAGGUGGCAGGACAAAUUGCGCCCAUUUAGAGGAUGUGGCUGUAACCUGCUGGAUGGGACUCCAUAGCUCCUUCCCAGGACCCCUCAGCUCCCCGGC` — result for “RBNS enrichment (R)”: 0.175.
Under “RBNS enrichment (R)”, `AAGAGUUUACCUCUUCUAGACAUUUAUGCCCAAUGGUGUCACACAUGAUCAUUUGCUCCUGCUCUAAUUUUAAUGUGCAUACAAAAAAUAUACCAAAAAUGUUAUUGUAA` is recorded as 0.597.
`AGGUCGUCUGCAGGGUUUUGCCCUUGGUUUACUGAGGGGGGCUGAGCUGCUGCUGGUCCCCCCUUCUGACGUGCAAUGCAAAAGGGACAUCAUGUAUACGCAGCAUUUAU` — result for “RBNS enrichment (R)”: 3.55.
Under “RBNS enrichment (R)”, `UCCUCCUUCCGGGGAAGGAUUUUGCAGUUCUUUGGCUGAAAGGAAGCUGUGCGUGUGUGUGUGUGUAUGUGUGUGUGUGUAUGUGUAUCUCACACUCAUGCAUUGUCCUC` is recorded as 2.31.
`UUCCUUCAGGAGAGCUUGUCACUUCCUUCUUAACGCAGUGGUUCCUAUCUCAGGGAUACUGGACUUGACGACACAGAUGAACAAUUAAAGUGGAAACCGCUUCCCUUUUC` — result for “RBNS enrichment (R)”: 0.201.
`GUGUAGUCAUUCAUUUCUAGCUGUACAUAGGAUGAAGGAGAGAUCAGAUACAUGAACAUGUCUUACAUGGGUUGCUGUAUUUAGAAUUAUAAACAUUUUUCAUUAUUGGA` — result for “RBNS enrichment (R)”: 0.391.
Under “RBNS enrichment (R)”, `AACCAUUAAAUCUAUUGUUUGGAAAGUCUGCAGUCCUGAGGAGGGCUUGCUCACUGGACACCCACAGAUCUGGCCCUUUGAAAGGCAGCCUUCAGAUGCCCAUCGUGUGA` is recorded as 0.238.
Under “RBNS enrichment (R)”, `AGAAAAUCUCAGUUUUGAUGAUUACGUUGCUUUUUUGUCCAGUAGUUUGGUUUAUAUACAUAAAUAUUCUUUGCACUACACAAAUGGUAACAUUUUAAAGACUAAUAUUG` is recorded as 0.401.
For `GAGUGUGCUGUUUUCAGAGAUGGGUCUUAGUAUUCCCAUUUAGCCCACUCAGCAUACACCCUCAAAAGACUCCCUCAGGAAACCACUAGUUCCUGUCACCUGCCCUCUGG`, “RBNS enrichment (R)” read 0.337.
`AUUGAAAGGUUGCGAUGGCAACCAGCCUCCAGCCAUGCAGGCCUGUUUUUAGAGAGAUGGGUCUCUCUGAGGAGGUCUGUCUCCCUGCUGUACAAUGCCUUUUAAACCUU` — result for “RBNS enrichment (R)”: 0.336.
For `AGAAUCAGAUGUAAUAGGAAACAUAGUUUCAGAUUGCUUCUGACAAAGUCUGUGCCACAUUCCUCACAGCAGGUGUGACUCUUUAAGACCAUGAUAGUGGAGUAAGGGAA`, “RBNS enrichment (R)” read 0.248.

Series 4
Target: Histone acetyltransferase KAT6A, both winged helices, GST fusion (KAT6A, Homo sapiens, UniProt Q92794, residues 1-181)
Method: protein binding microarray
Form: double-stranded DNA, one strand shown
Sample: in vitro
Concentration: not given
Notes: 8-mer, flanks averaged, mean of 2 arrays, mostly near background
Baseline: not given
Direction: higher = stronger binding
Target sequence (chain): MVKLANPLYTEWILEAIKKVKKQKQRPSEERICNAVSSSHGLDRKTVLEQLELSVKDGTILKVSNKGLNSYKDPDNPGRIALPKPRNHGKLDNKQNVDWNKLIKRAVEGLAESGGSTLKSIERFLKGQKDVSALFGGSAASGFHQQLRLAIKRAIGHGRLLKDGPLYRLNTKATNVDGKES
For `AAACGAAC`, the E-score was 0.0475.
With `GAATATCA` the E-score was -0.021.
`TAGAGTGA` gave an E-score of -0.253.
With `ATTGAGAC` the E-score was -0.0318.
The E-score of `CGAATTCC` is reported as 0.0659.
`GGCCTCAA` gave an E-score of -0.0759.
For `ACGGCTAA`, the E-score was 0.218.
For `CCTCCGGA`, the E-score was 0.0542.
`GTCGCCTA` has an E-score of 0.113.
`ATGACTGG` has an E-score of -0.212.
With `CAAACTTC` the E-score was -0.0893.
The E-score of `ATGAAAGG` is reported as -0.127.
With `CTTACCAA` the E-score was -0.0889.
`CAGATCCC` gave an E-score of -0.0677.
`ACTCAGGC` gave an E-score of -0.0343.
With `AAGCTGAT` the E-score was -0.175.
